Measurements of several laboratories.
Every numbered part comes from another study and shows a few of its results, in no order. Changes are numbered by the printed parent chain.

Series 1
Target: Sal-like protein 4, full length isoform A (SALL4, Homo sapiens, UniProt Q9UJQ4, residues 1-1053)
Sequence of UniProt Q9UJQ4 (whole entry, looked up): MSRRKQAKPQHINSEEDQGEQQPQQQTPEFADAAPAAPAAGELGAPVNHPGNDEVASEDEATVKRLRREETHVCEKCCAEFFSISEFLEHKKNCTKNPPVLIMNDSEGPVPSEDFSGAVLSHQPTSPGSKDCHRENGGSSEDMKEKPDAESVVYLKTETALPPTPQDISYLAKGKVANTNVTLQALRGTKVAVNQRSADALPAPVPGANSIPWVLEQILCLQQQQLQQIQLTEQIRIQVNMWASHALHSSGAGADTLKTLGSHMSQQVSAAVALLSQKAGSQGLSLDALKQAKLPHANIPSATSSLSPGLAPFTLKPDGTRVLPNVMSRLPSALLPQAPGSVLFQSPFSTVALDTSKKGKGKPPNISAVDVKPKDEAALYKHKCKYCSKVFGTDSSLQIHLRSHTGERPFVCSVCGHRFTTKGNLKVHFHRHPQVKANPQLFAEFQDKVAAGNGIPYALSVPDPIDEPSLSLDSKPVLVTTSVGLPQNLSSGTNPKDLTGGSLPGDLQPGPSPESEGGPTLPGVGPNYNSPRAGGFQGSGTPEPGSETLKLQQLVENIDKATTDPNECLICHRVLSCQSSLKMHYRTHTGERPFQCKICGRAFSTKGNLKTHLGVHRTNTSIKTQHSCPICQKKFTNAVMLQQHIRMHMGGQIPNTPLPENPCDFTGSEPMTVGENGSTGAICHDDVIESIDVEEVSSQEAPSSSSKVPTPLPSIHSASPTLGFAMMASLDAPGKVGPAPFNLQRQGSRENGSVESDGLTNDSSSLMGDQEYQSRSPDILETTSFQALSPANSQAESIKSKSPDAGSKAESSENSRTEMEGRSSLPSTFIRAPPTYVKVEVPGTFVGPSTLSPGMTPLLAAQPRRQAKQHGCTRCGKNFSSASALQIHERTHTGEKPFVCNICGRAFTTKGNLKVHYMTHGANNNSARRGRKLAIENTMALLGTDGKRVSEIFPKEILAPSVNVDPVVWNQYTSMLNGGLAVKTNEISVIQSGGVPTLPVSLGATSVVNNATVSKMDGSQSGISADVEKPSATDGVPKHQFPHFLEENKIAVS
Technique: universal PBM
Form: double-stranded DNA, one strand shown
Medium: in vitro
Concentration: 600 nM
Notes: 8-mer, flanks averaged, mean of replicates
Direction: higher = stronger binding
`ATCGCCGC` has an E-score of -0.29.
The E-score of `ACACCGTC` is reported as -0.153.
The E-score of `ACTTGAAG` is reported as 0.201.
With `CCTGCGCG` the E-score was -0.176.
`AAGACCGA` gave an E-score of -0.0791.
`AGAACTCA` gave an E-score of 0.0727.
For `GCTCTCGA`, the E-score was -0.183.

Series 2
Target: Ras GTPase-activating protein-binding protein 1, C-terminal RGG region (G3BP1, Homo sapiens, UniProt Q13283)
Sequence of UniProt Q13283 (whole entry, looked up): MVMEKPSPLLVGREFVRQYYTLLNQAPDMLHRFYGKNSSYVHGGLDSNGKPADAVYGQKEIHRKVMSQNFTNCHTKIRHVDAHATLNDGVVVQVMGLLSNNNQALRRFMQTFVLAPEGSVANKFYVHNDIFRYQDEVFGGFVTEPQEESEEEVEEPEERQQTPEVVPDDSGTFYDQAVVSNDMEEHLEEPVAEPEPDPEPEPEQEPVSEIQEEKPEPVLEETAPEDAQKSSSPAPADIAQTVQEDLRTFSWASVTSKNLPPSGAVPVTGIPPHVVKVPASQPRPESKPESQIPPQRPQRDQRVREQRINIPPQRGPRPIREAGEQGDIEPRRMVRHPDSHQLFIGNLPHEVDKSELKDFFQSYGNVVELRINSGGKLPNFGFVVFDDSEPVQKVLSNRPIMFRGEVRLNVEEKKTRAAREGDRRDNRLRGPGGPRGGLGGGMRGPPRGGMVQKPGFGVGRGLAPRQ
Technique: RNA Bind-n-Seq
Form: RNA
Medium: in vitro
Concentration: 1 µM
Notes: whole 134-nt RNA, ends assumed
Added: 150 mM KCl
Baseline: input library
Direction: higher = stronger binding
`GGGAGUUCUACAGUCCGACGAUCGCAGGAAGUAAAAACAAAUGGAAAUGCUUCGGAUAGAAACAGGGGUGGGGGUUGCUAAGGAAAGGGUGGGAUGGGAGUGGGUAAAGAGUUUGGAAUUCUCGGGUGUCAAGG` gave a log2 enrichment of 1.68.
`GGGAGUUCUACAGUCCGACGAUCCAAGUCCUGUGCUACACAUCGUAUGUACCGAAUCGGGGAAAGGAAAGGGAAAGGGGAAAGUAUUAUGUUACGCCGUUCGGAUCUGCACUUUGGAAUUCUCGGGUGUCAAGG` has a log2 enrichment of -0.534.
The log2 enrichment of `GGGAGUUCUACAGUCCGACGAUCGUCCUGUGCUACACAUCGUAUGUACCGAAUCGGUUUUUGGGGUUUUUGGGGUUUUUGGGAAAGUAUUAUGUUACGCCGUUCGGAUCUGCAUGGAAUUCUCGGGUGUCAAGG` is reported as -0.484.
With `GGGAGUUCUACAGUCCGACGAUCCCUGUGCUACACAUCGUAUGUACCGAAUCGGGGUGGGGAAAAAAAGGGGAAAAAAAGGGGAAAGUAUUAUGUUACGCCGUUCGGAUCUGCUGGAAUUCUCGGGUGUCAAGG` the log2 enrichment was -0.136.
`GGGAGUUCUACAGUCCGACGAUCUCCUGUGCUACACAUCGUAUGUACCGAAUCGGGGAAAAAGGGGUUUUUGGGGUUUGGGGAAAGUAUUAUGUUACGCCGUUCGGAUCUGCAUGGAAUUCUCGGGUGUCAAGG` gave a log2 enrichment of 1.67.

Series 3
Target: Interferon regulatory factor 7, full length, phosphomimetic (IRF7, Homo sapiens, UniProt Q92985, residues 1-503, S471D/S472D/S475D/S476D/S477D/S483D/S484D/S487D)
Sequence of UniProt Q92985 (whole entry, unmodified, looked up): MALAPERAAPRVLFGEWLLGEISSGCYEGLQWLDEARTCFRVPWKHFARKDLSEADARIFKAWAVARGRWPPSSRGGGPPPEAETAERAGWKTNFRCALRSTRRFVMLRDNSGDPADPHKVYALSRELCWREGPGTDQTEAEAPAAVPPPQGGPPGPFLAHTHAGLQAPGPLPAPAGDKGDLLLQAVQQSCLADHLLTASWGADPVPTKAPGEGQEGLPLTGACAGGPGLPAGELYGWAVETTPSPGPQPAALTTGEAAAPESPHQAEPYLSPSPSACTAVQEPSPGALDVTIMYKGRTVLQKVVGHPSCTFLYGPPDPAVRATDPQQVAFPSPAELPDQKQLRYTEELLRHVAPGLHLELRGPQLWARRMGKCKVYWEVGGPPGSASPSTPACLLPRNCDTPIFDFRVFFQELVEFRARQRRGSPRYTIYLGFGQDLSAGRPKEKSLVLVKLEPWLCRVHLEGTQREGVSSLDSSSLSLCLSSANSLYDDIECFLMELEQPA
Technique: protein-binding microarray
Form: double-stranded DNA, one strand shown
Medium: in vitro
Concentration: 2200 nM top
Notes: 60-bp whole probe
Added: salmon DNA 0.4 mg/ml
Baseline: random background probes
Direction: higher = stronger binding
All sequences stand within: GCCTAGCAC … GTCTTGATTCGCTTGACGCTGCTG
For `TTTGGTTTCGGTATCGGTTAGTGCTAG`, “fitted relative affinity” read 9.23 z-score.
Under “fitted relative affinity”, `TGTCTTTTCATTTTCTTTAAGTGCTAG` is recorded as 3.18 z-score.
For `TCACTTCTCGAGTGCCGGACTGTGCTA`, “fitted relative affinity” read 1.6 z-score.
`TTAGGTTTCCTTCTCCTGTAGTGCTAG`: “fitted relative affinity” 2.71 z-score.
For `TCAATAATTTTTTTCTAACTGTGCTAG`, “fitted relative affinity” read 0.0595 z-score.
`TTACATCTCAGTATCGATTAGTGCTAG` — result for “fitted relative affinity”: 1.33 z-score.
Under “fitted relative affinity”, `TTTCGTTACTTCCTCAAACAGTGCTAG` is recorded as 9.33 z-score.
`GACGGTATCGACACTGGTGACGTGCTA` — result for “fitted relative affinity”: -0.201 z-score.
`CTTTTTAGAAATTTCTTTCTGTGCTAG`: “fitted relative affinity” 0.87 z-score.
For `TCTATAATGGATATATATCAGTGCTAG`, “fitted relative affinity” read 0.199 z-score.

Other studies, line by line
Technique: yeast growth competition, sequencing
Medium: yeast
Notes: weak parent motif
Baseline: not given
Direction: higher = stronger binding
P1: E2F7 docking peptide (human); SSAQRRLEIPSGG; partner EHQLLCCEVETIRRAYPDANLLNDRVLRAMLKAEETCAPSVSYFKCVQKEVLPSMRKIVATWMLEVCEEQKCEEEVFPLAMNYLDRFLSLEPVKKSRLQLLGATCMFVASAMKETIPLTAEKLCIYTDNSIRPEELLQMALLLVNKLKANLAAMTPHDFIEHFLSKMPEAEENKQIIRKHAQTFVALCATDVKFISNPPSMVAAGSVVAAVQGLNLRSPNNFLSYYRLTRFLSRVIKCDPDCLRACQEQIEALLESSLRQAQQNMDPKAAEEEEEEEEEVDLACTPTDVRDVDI
P2: E2F3 docking peptide (human); PPAKRRLELGESG; partner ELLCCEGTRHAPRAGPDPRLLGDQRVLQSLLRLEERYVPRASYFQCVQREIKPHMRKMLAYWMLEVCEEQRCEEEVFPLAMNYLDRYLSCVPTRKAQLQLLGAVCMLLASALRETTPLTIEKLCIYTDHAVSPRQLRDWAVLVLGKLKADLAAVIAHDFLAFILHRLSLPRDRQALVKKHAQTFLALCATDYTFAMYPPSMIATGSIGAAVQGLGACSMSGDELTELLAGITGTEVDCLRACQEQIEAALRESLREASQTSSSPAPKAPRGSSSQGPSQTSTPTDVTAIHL
`P1 R5K I9L` — result for “normalised enrichment score”: -0.0698 (CCND1, cyclin fold, Cln2 fusion (human)).
`P2 R5A` — result for “normalised enrichment score”: 0.0854 (CCND3, cyclin fold, Cln2 fusion (human)).

Some of these lines once more (series 3):
For `TCACTTCTCGAGTGCCGGACTGTGCTA`, “fitted relative affinity” read 1.6 z-score.
`TTAGGTTTCCTTCTCCTGTAGTGCTAG`: “fitted relative affinity” 2.71 z-score.
For `TCAATAATTTTTTTCTAACTGTGCTAG`, “fitted relative affinity” read 0.0595 z-score.
